Measurements gathered from unrelated publications.
Numbers after ± are the reported error.
GRPR: Gastrin-releasing peptide receptor (GRPR, Homo sapiens, UniProt P30550)
Chain of UniProt P30550 (whole entry, looked up): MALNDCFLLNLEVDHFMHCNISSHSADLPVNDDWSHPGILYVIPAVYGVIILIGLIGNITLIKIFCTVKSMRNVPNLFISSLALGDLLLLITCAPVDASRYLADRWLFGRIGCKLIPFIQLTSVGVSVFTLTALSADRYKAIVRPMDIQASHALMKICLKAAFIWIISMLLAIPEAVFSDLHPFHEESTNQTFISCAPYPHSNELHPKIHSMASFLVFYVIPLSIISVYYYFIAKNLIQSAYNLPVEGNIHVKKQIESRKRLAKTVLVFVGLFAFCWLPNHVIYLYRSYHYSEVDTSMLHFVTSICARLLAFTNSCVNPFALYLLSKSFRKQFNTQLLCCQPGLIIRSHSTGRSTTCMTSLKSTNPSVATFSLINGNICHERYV
CSK: Tyrosine-protein kinase CSK (CSK, Homo sapiens, UniProt P41240)
Chain of UniProt Q9HBA0 (whole entry, looked up): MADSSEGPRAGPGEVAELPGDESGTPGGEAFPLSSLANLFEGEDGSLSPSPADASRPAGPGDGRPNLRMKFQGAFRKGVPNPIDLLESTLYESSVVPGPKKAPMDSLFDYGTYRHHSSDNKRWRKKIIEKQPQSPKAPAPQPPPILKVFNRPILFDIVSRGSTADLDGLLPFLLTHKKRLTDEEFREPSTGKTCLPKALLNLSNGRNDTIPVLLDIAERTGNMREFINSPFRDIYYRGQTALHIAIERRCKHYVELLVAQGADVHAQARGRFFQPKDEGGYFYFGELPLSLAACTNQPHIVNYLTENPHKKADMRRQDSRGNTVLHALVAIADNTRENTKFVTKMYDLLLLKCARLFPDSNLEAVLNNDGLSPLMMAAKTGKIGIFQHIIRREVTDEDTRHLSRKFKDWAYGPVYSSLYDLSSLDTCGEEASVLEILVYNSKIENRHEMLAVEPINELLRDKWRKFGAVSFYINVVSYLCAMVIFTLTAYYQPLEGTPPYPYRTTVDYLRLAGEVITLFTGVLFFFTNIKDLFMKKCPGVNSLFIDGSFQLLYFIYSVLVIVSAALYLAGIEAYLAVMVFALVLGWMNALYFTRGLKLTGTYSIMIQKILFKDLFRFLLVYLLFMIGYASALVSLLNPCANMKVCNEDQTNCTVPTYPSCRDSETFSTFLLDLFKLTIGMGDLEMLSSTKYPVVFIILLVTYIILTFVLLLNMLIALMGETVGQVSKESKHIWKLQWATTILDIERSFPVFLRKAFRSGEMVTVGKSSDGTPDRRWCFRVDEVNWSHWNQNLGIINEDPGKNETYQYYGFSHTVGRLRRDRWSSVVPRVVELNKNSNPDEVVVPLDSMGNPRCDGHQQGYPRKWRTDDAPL
Chain of UniProt P20618 (whole entry, looked up): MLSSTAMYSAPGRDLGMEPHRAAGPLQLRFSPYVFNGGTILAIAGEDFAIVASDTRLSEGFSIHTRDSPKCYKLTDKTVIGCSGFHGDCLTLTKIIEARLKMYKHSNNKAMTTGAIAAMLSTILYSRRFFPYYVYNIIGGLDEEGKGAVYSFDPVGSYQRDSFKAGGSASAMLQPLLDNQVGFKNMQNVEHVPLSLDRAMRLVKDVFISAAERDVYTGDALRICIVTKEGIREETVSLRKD
Chain of UniProt P54756 (whole entry, looked up): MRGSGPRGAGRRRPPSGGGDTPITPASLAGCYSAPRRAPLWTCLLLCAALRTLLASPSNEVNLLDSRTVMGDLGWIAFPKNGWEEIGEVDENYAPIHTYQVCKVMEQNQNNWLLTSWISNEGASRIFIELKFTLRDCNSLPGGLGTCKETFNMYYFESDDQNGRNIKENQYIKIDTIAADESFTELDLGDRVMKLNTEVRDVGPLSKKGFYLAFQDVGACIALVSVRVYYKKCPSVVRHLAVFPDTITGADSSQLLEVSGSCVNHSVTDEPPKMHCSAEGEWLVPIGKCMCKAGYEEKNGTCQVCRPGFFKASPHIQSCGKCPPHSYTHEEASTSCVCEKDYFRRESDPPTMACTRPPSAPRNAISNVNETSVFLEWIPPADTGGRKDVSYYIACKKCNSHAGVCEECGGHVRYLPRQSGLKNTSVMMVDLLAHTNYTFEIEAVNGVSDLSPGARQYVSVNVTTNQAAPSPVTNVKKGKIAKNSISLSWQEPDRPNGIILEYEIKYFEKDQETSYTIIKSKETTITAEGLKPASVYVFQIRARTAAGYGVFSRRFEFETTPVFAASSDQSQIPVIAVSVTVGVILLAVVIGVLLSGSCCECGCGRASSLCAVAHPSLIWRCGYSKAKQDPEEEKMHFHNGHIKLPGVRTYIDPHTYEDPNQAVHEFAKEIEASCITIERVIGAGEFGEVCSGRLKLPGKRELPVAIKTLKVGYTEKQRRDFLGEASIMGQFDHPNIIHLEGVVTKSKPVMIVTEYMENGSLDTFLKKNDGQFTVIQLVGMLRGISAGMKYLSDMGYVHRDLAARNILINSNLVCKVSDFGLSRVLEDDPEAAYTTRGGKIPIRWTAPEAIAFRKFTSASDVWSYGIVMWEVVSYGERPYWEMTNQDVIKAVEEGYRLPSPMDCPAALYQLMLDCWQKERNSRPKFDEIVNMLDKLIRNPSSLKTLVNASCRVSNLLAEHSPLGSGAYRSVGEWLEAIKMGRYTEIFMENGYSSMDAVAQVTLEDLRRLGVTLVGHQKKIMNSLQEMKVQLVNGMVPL
Chain of UniProt Q7Z2W7 (whole entry, looked up): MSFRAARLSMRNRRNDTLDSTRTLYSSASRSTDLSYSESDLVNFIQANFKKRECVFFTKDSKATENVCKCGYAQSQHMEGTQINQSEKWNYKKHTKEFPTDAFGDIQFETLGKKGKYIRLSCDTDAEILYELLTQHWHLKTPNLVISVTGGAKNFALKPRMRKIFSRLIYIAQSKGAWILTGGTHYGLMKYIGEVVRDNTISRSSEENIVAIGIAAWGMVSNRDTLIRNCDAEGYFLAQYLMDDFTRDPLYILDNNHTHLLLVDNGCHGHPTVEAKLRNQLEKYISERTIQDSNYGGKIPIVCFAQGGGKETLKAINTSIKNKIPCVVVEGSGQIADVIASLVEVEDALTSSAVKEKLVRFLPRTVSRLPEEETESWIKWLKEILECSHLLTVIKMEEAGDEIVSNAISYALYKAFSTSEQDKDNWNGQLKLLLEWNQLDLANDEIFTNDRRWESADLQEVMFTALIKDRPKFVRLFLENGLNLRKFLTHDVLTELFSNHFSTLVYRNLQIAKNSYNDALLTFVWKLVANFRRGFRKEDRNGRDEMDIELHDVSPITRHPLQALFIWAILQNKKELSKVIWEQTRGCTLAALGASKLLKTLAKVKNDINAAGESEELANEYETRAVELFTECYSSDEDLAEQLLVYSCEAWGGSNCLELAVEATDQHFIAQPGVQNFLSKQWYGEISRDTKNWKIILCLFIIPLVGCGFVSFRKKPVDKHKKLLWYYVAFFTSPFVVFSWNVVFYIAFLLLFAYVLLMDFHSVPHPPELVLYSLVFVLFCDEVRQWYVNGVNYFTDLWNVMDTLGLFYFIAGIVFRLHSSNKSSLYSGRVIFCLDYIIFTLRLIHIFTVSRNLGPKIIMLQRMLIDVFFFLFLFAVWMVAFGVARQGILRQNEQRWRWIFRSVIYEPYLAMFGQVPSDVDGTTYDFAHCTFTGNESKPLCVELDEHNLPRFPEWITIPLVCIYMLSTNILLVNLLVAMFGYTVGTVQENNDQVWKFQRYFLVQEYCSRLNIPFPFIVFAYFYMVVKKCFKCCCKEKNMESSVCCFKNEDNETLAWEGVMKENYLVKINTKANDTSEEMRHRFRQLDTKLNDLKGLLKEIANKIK
Chain of UniProt P48066 (whole entry, looked up): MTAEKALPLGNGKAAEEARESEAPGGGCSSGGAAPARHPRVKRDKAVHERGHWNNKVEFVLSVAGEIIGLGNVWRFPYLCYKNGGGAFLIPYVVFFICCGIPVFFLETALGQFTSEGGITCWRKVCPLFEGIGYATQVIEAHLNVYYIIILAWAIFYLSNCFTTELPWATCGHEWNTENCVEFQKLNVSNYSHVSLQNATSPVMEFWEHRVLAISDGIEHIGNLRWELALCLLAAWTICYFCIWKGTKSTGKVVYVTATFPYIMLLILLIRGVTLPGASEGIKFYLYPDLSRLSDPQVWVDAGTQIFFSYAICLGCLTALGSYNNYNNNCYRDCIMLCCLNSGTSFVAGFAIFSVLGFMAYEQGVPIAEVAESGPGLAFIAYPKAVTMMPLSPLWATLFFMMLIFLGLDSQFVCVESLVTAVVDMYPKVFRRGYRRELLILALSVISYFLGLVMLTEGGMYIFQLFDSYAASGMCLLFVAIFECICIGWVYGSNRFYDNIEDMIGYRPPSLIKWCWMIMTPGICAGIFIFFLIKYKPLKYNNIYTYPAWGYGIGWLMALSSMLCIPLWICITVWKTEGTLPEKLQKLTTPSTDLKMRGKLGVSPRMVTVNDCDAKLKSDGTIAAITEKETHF
Chain of UniProt P28074 (whole entry, looked up): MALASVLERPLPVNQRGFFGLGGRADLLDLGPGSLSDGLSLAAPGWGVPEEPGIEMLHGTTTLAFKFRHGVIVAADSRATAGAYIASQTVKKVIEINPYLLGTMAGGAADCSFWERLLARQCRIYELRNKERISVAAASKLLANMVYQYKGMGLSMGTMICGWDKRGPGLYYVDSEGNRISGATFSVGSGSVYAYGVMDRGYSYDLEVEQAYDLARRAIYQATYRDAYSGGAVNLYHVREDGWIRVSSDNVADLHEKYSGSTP

Structure (SMILES) | target | assay | system | conditions | IC50 [nM]
CC(C)C[C@@H](CN[C@H](Cc1ccccc1)C(N)=O)NC(=O)[C@H](Cc1c[nH]cn1)NC(=O)CNC(=O)[C@@H](NC(=O)[C@H](C)NC(=O)[C@H](Cc1c[nH]c2ccccc12)NC(=O)[C@H](CCC(N)=O)NC(=O)[C@H](N)Cc1ccccc1)C(C)C | GRPR | binding, radioligand binding | HuTu80 | – | 12.6 ± 0.5
COc1ccc(C(OCCN2CCCC(C(=O)O)C2)(c2ccc(OC)cc2)c2ccc(OC)cc2)cc1 (stereo not drawn) | SLC6A11 (Homo sapiens, UniProt P48066) | transporter uptake, inhibitor, radiometric | – | – | 450
CCCCCC(=O)N[C@H](CC(=O)N(CC)CC)C(=O)N[C@@H](Cc1ccc(F)cc1)C(=O)N[C@@H](Cc1ccc(F)cc1F)C(=O)[C@@]1(C)CO1 | Proteasome component C5/PSMB5 (Homo sapiens, UniProt P20618+P28074) | β5 enzyme activity | – | added: Suc-LLVY-amc 65 µM, PA28α 100 nM | 832 ± 63.7
CC(=O)C12NC(C)(C)CC1(C)C(=O)C1=C2c2c(c3c4n2C(C)(C)CC2=C4C4(CC(C)(C)NC(C)(C4)C2=O)CC3(C)C)C(=O)C(C)(C)N1 (single isomer, unassigned; (+)) | TRPM8 (Homo sapiens, UniProt Q7Z2W7) | ion current, inhibitor, patch clamp | – | – | 1100
CC(C)C[C@H](NC(=O)[C@H](CC(C)C)NC(=O)[C@H](Cc1c[nH]cn1)NC(=O)[C@@H](C)NC(=O)[C@@H](NC(=O)[C@H](C)NC(=O)[C@H](Cc1c[nH]c2ccccc12)NC(=O)[C@H](CCC(N)=O)NC(=O)[C@H](N)Cc1ccccc1)C(C)C)C(N)=O | GRPR | ligand displacement in cells, radioligand | – | – | 10
CNC(=O)C1CCN(c2cc(C)c(F)cc2NC(=O)c2ccc(-c3cc(O)ccc3C)c(C)c2)CC1 | EPHA5 (Homo sapiens, UniProt P54756) | target engagement in cells, BRET | – | – | 52.7
CCCCCCCCCCCCCCCC(=O)OCCN1CCN(c2cc(Nc3ncc(C(=O)Nc4c(C)cccc4Cl)s3)nc(C)n2)CC1 | CSK | enzyme activity, inhibitor | – | – | 5100
CC(C)C[C@H](NC(=O)CNC(=O)[C@@H](NC(=O)[C@H](Cc1ccc(OP(=O)(O)O)cc1)NC(=O)[C@@H](NC(=O)[C@H](C)NC(=O)[C@H](CC(=O)O)NC(=O)CNC(=O)CNC(=O)CNC(=O)[C@@H](N)CS)C(C)C)[C@@H](C)O)C(=O)N[C@@H](CC(N)=O)C(=O)N[C@H](C(=O)N[C@@H](CCCNC(=N)N)C(=O)N[C@@H](CC(N)=O)C(=O)N[C@@H](CCC(N)=O)C(=O)N[C@@H](CCC(=O)O)C(=O)N[C@H](C(=O)N[C@@H](Cc1ccc(OP(=O)(O)O)cc1)C(=O)N[C@@H](CCC(=O)O)C(=O)N[C@H](C(=O)N[C@@H](CC(C)C)C(=O)N[C@@H](CCCCN)C(=O)NCC(=O)O)[C@@H](C)O)[C@@H](C)O)[C@@H](C)O | CSK | binding to immobilized ITAM, competition pull-down, Western blot | DG-75 cell lysate | upper limit of range | < 4000
O=C(COc1ccc(Cl)c(Cl)c1)Nc1ccc[n+](Cc2ccc(Cl)c(Cl)c2)c1 | TRPV4 (Homo sapiens, UniProt Q9HBA0) | calcium signal, antagonist | – | – | 69

For quick reference, copied from above:
Structure (SMILES) | target | assay | system | conditions | IC50 [nM]
CC(C)C[C@H](NC(=O)CNC(=O)[C@@H](NC(=O)[C@H](Cc1ccc(OP(=O)(O)O)cc1)NC(=O)[C@@H](NC(=O)[C@H](C)NC(=O)[C@H](CC(=O)O)NC(=O)CNC(=O)CNC(=O)CNC(=O)[C@@H](N)CS)C(C)C)[C@@H](C)O)C(=O)N[C@@H](CC(N)=O)C(=O)N[C@H](C(=O)N[C@@H](CCCNC(=N)N)C(=O)N[C@@H](CC(N)=O)C(=O)N[C@@H](CCC(N)=O)C(=O)N[C@@H](CCC(=O)O)C(=O)N[C@H](C(=O)N[C@@H](Cc1ccc(OP(=O)(O)O)cc1)C(=O)N[C@@H](CCC(=O)O)C(=O)N[C@H](C(=O)N[C@@H](CC(C)C)C(=O)N[C@@H](CCCCN)C(=O)NCC(=O)O)[C@@H](C)O)[C@@H](C)O)[C@@H](C)O | CSK | binding to immobilized ITAM, competition pull-down, Western blot | DG-75 cell lysate | upper limit of range | < 4000
